Assay results collected from several papers.
Each numbered part is a random draw from the data of one study; scales do not carry over between parts. “And” joins repeats or separate records; there may be more than shown.
Chain of UniProt O15530 (whole entry, looked up): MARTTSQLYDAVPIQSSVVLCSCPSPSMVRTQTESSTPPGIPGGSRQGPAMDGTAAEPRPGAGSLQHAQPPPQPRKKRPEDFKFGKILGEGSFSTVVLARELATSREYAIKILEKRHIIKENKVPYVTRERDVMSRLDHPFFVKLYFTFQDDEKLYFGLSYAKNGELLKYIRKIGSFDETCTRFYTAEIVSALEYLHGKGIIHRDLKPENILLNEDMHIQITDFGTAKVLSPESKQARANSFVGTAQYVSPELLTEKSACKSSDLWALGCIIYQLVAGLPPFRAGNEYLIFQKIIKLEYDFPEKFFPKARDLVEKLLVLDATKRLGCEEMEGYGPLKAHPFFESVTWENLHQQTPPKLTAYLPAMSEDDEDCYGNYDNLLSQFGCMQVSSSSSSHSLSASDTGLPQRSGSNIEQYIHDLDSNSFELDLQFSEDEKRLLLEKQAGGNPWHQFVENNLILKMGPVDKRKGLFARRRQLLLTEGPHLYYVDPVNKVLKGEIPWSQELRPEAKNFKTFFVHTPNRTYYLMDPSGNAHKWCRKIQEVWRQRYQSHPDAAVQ
Chain of UniProt P00519 (whole entry, unmodified, looked up): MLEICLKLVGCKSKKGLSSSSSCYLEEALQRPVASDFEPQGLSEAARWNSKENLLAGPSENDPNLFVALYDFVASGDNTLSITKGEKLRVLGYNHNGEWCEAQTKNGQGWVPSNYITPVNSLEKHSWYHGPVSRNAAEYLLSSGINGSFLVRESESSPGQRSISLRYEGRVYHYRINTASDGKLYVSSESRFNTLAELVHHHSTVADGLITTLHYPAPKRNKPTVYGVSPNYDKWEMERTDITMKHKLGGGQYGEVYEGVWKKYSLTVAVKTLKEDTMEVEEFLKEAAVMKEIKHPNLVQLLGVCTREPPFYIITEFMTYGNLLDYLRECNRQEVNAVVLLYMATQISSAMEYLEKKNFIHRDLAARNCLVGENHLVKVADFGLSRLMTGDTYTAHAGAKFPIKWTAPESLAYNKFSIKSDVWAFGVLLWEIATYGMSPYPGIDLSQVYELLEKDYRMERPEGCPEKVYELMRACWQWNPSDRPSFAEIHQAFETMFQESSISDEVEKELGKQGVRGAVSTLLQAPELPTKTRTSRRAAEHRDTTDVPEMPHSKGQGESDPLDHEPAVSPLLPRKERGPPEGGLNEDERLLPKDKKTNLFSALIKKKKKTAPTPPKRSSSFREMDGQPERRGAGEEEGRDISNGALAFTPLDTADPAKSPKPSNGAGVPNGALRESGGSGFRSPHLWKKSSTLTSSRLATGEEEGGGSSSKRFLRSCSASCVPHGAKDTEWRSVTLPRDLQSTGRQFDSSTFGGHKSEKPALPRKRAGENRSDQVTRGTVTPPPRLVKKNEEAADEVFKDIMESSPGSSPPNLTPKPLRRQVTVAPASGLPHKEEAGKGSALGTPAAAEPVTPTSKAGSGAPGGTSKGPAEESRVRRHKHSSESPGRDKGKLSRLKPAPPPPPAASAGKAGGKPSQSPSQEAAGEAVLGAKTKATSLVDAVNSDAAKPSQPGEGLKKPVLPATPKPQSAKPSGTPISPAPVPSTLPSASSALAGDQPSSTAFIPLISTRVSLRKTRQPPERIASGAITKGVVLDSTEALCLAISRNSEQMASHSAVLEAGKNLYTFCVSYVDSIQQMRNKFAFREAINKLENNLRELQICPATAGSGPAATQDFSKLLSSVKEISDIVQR
Chain of UniProt P42336 (whole entry, unmodified, looked up): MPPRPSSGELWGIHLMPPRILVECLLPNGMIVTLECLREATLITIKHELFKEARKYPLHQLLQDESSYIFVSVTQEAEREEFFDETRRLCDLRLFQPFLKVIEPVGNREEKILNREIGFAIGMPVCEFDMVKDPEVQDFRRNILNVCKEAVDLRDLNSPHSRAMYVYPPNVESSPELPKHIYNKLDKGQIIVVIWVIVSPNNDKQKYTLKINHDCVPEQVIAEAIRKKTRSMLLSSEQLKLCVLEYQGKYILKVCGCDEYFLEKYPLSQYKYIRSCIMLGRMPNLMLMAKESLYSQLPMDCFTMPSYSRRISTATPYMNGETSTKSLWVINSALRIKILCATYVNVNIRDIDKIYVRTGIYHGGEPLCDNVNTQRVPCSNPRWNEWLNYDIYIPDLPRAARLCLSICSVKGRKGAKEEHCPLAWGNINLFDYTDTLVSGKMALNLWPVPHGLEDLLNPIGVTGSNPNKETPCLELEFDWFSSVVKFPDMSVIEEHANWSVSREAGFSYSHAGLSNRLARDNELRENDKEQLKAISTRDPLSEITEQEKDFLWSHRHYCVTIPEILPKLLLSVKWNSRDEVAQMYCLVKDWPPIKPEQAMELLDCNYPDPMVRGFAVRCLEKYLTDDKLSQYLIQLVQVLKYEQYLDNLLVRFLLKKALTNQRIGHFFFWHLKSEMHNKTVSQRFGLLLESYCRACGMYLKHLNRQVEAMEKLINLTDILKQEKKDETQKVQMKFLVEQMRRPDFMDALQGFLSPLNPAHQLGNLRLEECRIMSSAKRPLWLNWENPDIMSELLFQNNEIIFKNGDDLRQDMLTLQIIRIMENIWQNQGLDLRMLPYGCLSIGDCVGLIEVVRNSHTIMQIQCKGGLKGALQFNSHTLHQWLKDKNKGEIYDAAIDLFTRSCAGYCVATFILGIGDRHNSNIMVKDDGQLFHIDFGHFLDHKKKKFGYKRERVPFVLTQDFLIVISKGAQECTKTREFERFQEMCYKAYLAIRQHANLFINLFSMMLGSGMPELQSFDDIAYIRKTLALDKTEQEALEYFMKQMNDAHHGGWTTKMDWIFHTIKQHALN
Chain of UniProt Q15139 (whole entry, looked up): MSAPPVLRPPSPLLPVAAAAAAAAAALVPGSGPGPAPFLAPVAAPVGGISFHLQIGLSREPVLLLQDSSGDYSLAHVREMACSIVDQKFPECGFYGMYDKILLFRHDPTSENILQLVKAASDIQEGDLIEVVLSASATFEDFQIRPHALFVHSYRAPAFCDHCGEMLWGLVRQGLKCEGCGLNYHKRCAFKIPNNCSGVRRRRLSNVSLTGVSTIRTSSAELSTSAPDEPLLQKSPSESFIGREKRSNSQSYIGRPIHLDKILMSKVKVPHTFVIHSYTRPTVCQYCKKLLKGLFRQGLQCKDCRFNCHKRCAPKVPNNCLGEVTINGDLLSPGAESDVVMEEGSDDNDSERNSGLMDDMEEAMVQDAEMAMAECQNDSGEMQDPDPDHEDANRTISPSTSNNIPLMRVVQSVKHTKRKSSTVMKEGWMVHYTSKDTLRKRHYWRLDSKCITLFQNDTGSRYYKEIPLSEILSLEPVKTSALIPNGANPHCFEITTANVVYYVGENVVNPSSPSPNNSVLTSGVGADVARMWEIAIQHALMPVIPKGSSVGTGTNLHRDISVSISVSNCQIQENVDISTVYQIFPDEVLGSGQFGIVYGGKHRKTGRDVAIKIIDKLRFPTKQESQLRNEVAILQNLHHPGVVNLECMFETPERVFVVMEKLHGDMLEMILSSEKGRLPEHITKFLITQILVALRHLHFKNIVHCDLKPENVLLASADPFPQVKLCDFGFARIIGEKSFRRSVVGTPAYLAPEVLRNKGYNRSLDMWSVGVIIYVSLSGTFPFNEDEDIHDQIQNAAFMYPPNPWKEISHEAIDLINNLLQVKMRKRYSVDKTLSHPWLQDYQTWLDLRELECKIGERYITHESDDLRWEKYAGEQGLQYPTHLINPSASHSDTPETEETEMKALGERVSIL

Block 1
Target: Beta-1 adrenergic receptor (ADRB1, Homo sapiens, UniProt P08588)
Chain of UniProt P08588 (whole entry, looked up): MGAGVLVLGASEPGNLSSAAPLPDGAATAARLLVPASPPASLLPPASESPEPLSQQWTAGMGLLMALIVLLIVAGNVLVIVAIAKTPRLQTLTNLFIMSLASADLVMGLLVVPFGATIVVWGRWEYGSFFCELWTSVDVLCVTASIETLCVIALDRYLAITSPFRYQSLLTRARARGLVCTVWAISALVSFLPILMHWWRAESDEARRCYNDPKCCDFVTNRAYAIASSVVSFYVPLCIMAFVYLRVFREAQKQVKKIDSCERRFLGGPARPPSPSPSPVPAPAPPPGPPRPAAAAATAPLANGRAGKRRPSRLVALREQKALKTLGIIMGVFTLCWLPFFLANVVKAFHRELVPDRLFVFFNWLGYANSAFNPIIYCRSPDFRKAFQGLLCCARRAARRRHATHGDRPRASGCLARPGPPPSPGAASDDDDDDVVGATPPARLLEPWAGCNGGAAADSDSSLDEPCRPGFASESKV
Action: antagonist
Measurement: IC50
SMILES = Cc1cc2ncn(-c3ccc4ccccc4n3)c2cc1C; result = ≥ 100 µM
SMILES = COc1ccccc1CN1C(=O)COC[C@@H]1[C@H](O)c1ccc(NC(=O)CCc2ccccc2)cc1; result = ≥ 100 µM
SMILES = CC(C)NC(=O)c1cc(-c2cccs2)nc2ccccc12; result = ≥ 100 µM
SMILES = CN1CCN(CC(O)COc2ccc(C34CC5CC(CC(C5)C3)C4)cc2)CC1 (stereo not shown); result = ≥ 100 µM
SMILES = COc1ccc(F)cc1-c1ncc2c(n1)OCCN(c1cccc(C(F)(F)F)c1)C2=O; result = ≥ 100 µM
SMILES = O=C1CCCN1CCC1CCN(Cc2cccc(OCC(O)CN3CCOCC3)c2)CC1 (stereo not shown); result = ≥ 100 µM
SMILES = CC1CCCN1C(=O)c1cc(-c2cnn(C(C)C)c2)nc2cc(F)ccc12 (stereo not shown); result = ≥ 100 µM
SMILES = Cc1ccc(F)c(Cn2cnc3c(cnn3C(C)(C)C)c2=O)c1Cl; result = ≥ 100 µM
SMILES = CN(C)c1cccc(-c2nccc3c(=O)cc(-c4cn[nH]c4)oc23)c1; result = ≥ 100 µM
SMILES = Cc1nc(-c2ccccc2)ccc1C(=O)NC1CCc2[nH]ncc2C1 (stereo not shown); result = ≥ 100 µM
SMILES = Fc1ccc(-c2ccc3ncc(Nc4ccnc(N5CCOCC5)c4)n3n2)cc1; result = ≥ 100 µM

Block 2
Cell line: mouse MPNST tumor cells
Method: high-content nuclear imaging
Measured: cell number
Tested at: 10 µM
Time: 12 h
Setting: mean of 2 replicates
Reference: plate mean
Direction: higher = more cells
Measurement: nuclei count
Compound = C=CCNc1ncnc2ccc(Br)cc12; result = 0.692 z-score
Compound = CCCN1CCC=C(c2cc(-c3ccc(C)cc3)no2)C1; result = 3.04 z-score
Compound = CC(=O)Oc1ccc(C(c2ccc(OC(C)=O)cc2)c2ccccn2)cc1; result = -0.241 z-score
Compound = COc1ccc2[nH]c([S+]([O-])Cc3ncc(C)c(OC)c3C)nc2c1 (stereo not shown); result = 0.193 z-score
Compound = CCCCNc1nc(N)c2[nH]c(=O)n(Cc3ccc(OCCN(C)C)nc3)c2n1; result = -0.468 z-score
Compound = N[C@H](CNc1nc(-c2ccncc2)nc2sc3c(c12)CCCC3)Cc1ccccc1; result = -6.36 z-score
Compound = COc1cc2ncnc(Nc3ccc(O)c(Br)c3)c2cc1OC; result = 3.9 z-score
Compound = COC(=O)CCc1ccc(OCC(O)CNC(C)C)cc1 (stereo not shown); result = 0.462 z-score
Compound = Cc1cnc(C(=O)O)c[n+]1[O-]; result = 0.29 z-score and 1.17 z-score
Compound = NC(=O)c1ccc(-c2nc(-c3ccccn3)c(-c3ccc4c(c3)OCO4)[nH]2)cc1; result = -2.93 z-score

Block 3
Target: NUAK family SNF1-like kinase 1 (NUAK1, Homo sapiens, UniProt O60285)
Chain of UniProt O60285 (whole entry, looked up): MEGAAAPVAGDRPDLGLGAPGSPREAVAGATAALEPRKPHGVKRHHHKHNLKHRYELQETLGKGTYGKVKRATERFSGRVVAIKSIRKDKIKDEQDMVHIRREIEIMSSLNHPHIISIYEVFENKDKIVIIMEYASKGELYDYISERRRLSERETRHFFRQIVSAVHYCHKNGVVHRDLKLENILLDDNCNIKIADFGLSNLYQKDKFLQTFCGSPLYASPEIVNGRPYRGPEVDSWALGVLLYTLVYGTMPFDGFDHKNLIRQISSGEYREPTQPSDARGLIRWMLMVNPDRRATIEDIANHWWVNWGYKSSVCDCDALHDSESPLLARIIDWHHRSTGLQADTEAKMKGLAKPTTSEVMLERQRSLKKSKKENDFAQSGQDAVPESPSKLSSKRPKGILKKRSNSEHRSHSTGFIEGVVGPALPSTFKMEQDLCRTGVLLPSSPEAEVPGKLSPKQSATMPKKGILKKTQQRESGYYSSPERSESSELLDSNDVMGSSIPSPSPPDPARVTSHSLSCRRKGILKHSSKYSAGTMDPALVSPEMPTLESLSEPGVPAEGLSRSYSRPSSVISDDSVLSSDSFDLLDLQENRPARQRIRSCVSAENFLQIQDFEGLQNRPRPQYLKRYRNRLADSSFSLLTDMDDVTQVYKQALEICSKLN
Read-out: enzyme activity
Action: inhibitor
Tested at: 0.5 µM
Reference: control
Measurement: remaining activity
SMILES = C[S+]([O-])c1ccc(-c2nc(-c3ccncc3)c(-c3ccc(F)cc3)[nH]2)cc1 (stereo not shown); result = 94.4%
SMILES = CCN1/C(=C/C(C)=O)Sc2ccc(OC)cc21; result = 93.4%
SMILES = CC(=O)O/N=C1/C(c2c(O)[nH]c3cc(Br)ccc23)=Nc2ccccc21; result = 49.4%
SMILES = CC(C)[C@H](CO)Nc1nc(Nc2cccc(Cl)c2)c2ncn(C(C)C)c2n1; result = 71.1%
SMILES = COc1cc2ncnc(Nc3ccc(OCc4ccccc4)cc3)c2cc1OC; result = 94.8%
SMILES = Cn1cc(/C=C2\C(=O)Nc3ccc(S(N)(=O)=O)cc32)c2ccccc21; result = 5.88%
SMILES = O=c1cc(N2CCOCC2)oc2c1ccc1ccccc12; result = 90.1%
SMILES = O=C1NC(=O)/C(=C/c2ccc3nccnc3c2)S1; result = 92.8%
SMILES = CC(C)c1nn(-c2c(Cl)cccc2Cl)c2nc(Cc3ccc(OCCO)cc3)[nH]c(=O)c12; result = 96.9%
SMILES = CCOc1cc2ncnc(Nc3cccc(Br)c3)c2cc1OCC; result = 94%
SMILES = CS(=O)(=O)CCNCc1ccc(-c2ccc3ncnc(Nc4ccc(OCc5cccc(F)c5)c(Cl)c4)c3c2)o1; result = 108%

Block 4
SMILES: NS(=O)(=O)c1cc(NC(=O)Cc2ccccc2)ccc1Oc1cccc(Cl)c1
Method: competition with immobilised ligand
Tested at: 1 µM
Measurement: remaining binding
target = AXL (Homo sapiens, UniProt P30530); assay = cell-free assay; result = 93%
target = PRKD2 (Homo sapiens, UniProt Q9BZL6); assay = cell-free assay; result = 85%
target = RET (Homo sapiens, UniProt P07949, V804L); assay = cell-free assay; result = 80%
target = ACVR1 (Homo sapiens, UniProt Q04771); assay = cell-free assay; result = 84%
target = MAP3K13 (Homo sapiens, UniProt O43283); assay = cell-free assay; result = 73%
target = PDPK1 (Homo sapiens, UniProt O15530); assay = cell-free assay; result = 95%
target = CASK (Homo sapiens, UniProt O14936); assay = cell-free assay; result = 86%
target = MAP2K3 (Homo sapiens, UniProt P46734); assay = cell-free assay; result = 83%
target = Tyrosine-protein kinase ABL1, phosphorylated (ABL1, Homo sapiens, UniProt P00519, E255K); assay = binding; result = 69%
target = PRKD1 (Homo sapiens, UniProt Q15139); assay = cell-free assay; result = 96%
target = TBK1 (Homo sapiens, UniProt Q9UHD2); assay = cell-free assay; result = 68%
target = Non-receptor tyrosine-protein kinase TYK2, JH2 (TYK2, Homo sapiens, UniProt P29597); assay = cell-free assay; result = 67%
target = NIM1K (Homo sapiens, UniProt Q8IY84); assay = cell-free assay; result = 62%
target = TIE1 (Homo sapiens, UniProt P35590); assay = cell-free assay; result = 100%
target = PAK6 (Homo sapiens, UniProt Q9NQU5); assay = cell-free assay; result = 100%
target = MARK3 (Homo sapiens, UniProt P27448); assay = cell-free assay; result = 100%
target = TAOK2 (Homo sapiens, UniProt Q9UL54); assay = cell-free assay; result = 76%
target = IRAK1 (Homo sapiens, UniProt P51617); assay = cell-free assay; result = 73%
target = FGFR3 (Homo sapiens, UniProt P22607, G697C); assay = cell-free assay; result = 100%
target = MAPK9 (Homo sapiens, UniProt P45984); assay = cell-free assay; result = 83%
target = CLK3 (Homo sapiens, UniProt P49761); assay = cell-free assay; result = 83%
target = MAP3K2 (Homo sapiens, UniProt Q9Y2U5); assay = cell-free assay; result = 84%
target = PIK3CA (Homo sapiens, UniProt P42336, C420R); assay = cell-free assay; result = 62%

For quick reference, copied from above (block 4):
target = MAP3K2 (Homo sapiens, UniProt Q9Y2U5); assay = cell-free assay; result = 84%
target = RET (Homo sapiens, UniProt P07949, V804L); assay = cell-free assay; result = 80%
target = TAOK2 (Homo sapiens, UniProt Q9UL54); assay = cell-free assay; result = 76%
target = Tyrosine-protein kinase ABL1, phosphorylated (ABL1, Homo sapiens, UniProt P00519, E255K); assay = binding; result = 69%
target = AXL (Homo sapiens, UniProt P30530); assay = cell-free assay; result = 93%
